# Experimental data collected from several papers.
# Lines come from different studies, so protocols differ.
# Method: steady-state kinetics
# B1: bga (Niallia circulans, UniProt E5RWQ2); chain GNSVSYDGERRVNFNENWRFQRETNGSIAGAQNPGFDDSSWRKLNLPHDWSIELDFNKNSLATHEGGYLDGGIGWYRKTFTIPESMKGKRISLDFDGVYMNSTTYLNGEVLGTYPFGYNAFSYDISDKLYKDGRANVLVVKVNNTQPSSRWYSGSGIYRNVYLTVTDPIHVARYGTFVTTPNLEKSIKEDRADVNIKTKISNDAAEAKQVKIKSTIYDGAGNTVQTVETEEKTAAAGTVTPFEQNTVIKQPKLWSIDKPYRYNLVTEVIVGGQTVDTYETKFGVRYFKFDENEGFSLNGEYMKLHGVSMHHDLGALGAATNARGVERQMQIMKDMGVNAIRVTHNPASPELLEAANKLGLFIIEEAFDSWAQSKKPYDYGRFFNAWAEHDIKEMVDRGKNEPAIIMWSIGNEIYDTTNAAGVETARNLVGWVKEIDTTRPTTIGEDKTRGDKVNVTPINSYIKEIFNIVDVVGLNYSENNYDGYHKQNPSWKLYGSETSSATRSRGVYTHPYQYNQSTKYADLQQSSYDNDYVGWGRTAEDAWKYDRDLKHIAGQFIWTGFDYIGEPTPYYNSYPAKSSYFGAVDTAGFPKDIFYYYQSQWKKEPMVHLLPHWNWKEGEKVRVLAYTNASKVELVLNGESLGEKNYDNKQTSWGAPYKETKDGKTYLEWAVPFKPGKLEAVAKDENGKVIARDQVVTAGEPASVRLTADRKVVKADGTDLSFITADIVDSKGIVVPDADHLITFNVTGQGELAGVDNGNASSVERYKDNKRKAFSGKALAIVQSSKLSGKITVHASVAGLSSDSTSVFTVTP
# B2: POLK (Homo sapiens, UniProt Q9UBT6); chain MGLNDNKAGMEGLDKEKINKIIMEATKGSRFYGNELKKEKQVNQRIENMMQQKAQITSQQLRKAQLQVDRFAMELEQSRNLSNTIVHIDMDAFYAAVEMRDNPELKDKPIAVGSMSMLSTSNYHARRFGVRAAMPGFIAKRLCPQLIIVPPNFDKYRAVSKEVKEILADYDPNFMAMSLDEAYLNITKHLEERQNWPEDKRRYFIKMGSSVENDNPGKEVNKLSEHERSISPLLFEESPSDVQPPGDPFQVNFEEQNNPQILQNSVVFGTSAQEVVKEIRFRIEQKTTLTASAGIAPNTMLAKVCSDKNKPNGQYQILPNRQAVMDFIKDLPIRKVSGIGKVTEKMLKALGIITCTELYQQRALLSLLFSETSWHYFLHISLGLGSTHLTRDGERKSMSVERTFSEINKAEEQYSLCQELCSELAQDLQKERLKGRTVTIKLKNVNFEVKTRASTVSSVVSTAEEIFAIAKELLKTEIDADFPHPLRLRLMGVRISSFPNEEDRKHQQ
# B3: ltaE H126F/H83F (Escherichia coli, UniProt P75823); chain MIDLRSDTVTRPSRAMLEAMMAAPVGDDVYGDDPTVNALQDYAAELSGKEAAIFLPTGTQANLVALLSHCERGEEYIVGQAAFNYLFEAGGAAVLGSIQPQPIDAAADGTLPLDKVAMKIKPDDIFFARTKLLSLENTHNGKVLPREYLKEAWEFTRERNLALHVDGARIFNAVVAYGCELKEITQYCDSFTICLSKGLGTPVGSLLVGNRDYIKRAIRWRKMTGGGMRQSGILAAAGIYALKNNVARLQEDHDNAAWMAEQLREAGADVMRQDTNMLFVRVGEENAAALGEYMKARNVLINASPIVRLVTHLDVSREQLAEVAAHWRAFLAR
# B4: PduO F112A (Limosilactobacillus reuteri, UniProt Q50EJ2); chain MKIYTKNGDKGQTRIIGKQILYKNDPRVAAYGEVDELNSWVGYTKSLINSHTQVLSNELEEIQQLLFDCGHDLATPADDERHSFKFKQEQPTVWLEEKIDNYTQVVPAVKKAILPGGTQLASALHVARTITRRAERQIVQLMREEQINQDVLIFINRLSDYFFAAARYANYLEQQPDMLYRNSKDVFR
# B5: enzyme (Brachypodium distachyon, UniProt I1IPY7); chain MEQGKAALGWAARDASGHLSPYNFSRRVQKDDDVTIKVLFCGICHTDLHIIKNEWGNALYPIVPGHEVVGVVTDVGPGVKNFKAGETVGVGYFLDSCRTCDSCSKGHENYCPTLVLTSNGVDYDGATTQGGFSDVVVVNQDYVVRVPDTLPPDGAAPLLCAGVTVYSPMMQYGLNAPGKHLGVVGLGGLGHMAVKFGKAFGMKVTVISSSLRKREEALDRLGADDFLVSSDAEQMKAAAGAMDGIIDTVSAGHPIVPLLELLRPMGQMVVCGAPSEPLQLPAYAVITGGKRIAGNGVGSVRDCQAMLDFAGEHGITADVEVVKMDYVNTAVERLERNDVRYRFVIDVAGSLQQGGAA
# B6: HGXPRT (Trypanosoma cruzi, UniProt Q4DRC3); chain MISSQQAMVHVVSRNAEGVIVVDGKAYPMAEELVATESVIQRSIKAVAKQIADFYRPLSHRDTHGGGGVAPISDENPLIIISVLKGSYIFTADMVRYLGDYGLPHVVDFLRVASYRGTSSTNKMKLLAETQFKALRGKHVLILEDIVDSGKTLRYILDKVQREHQPATLKVCVLADKPGGRRVTMQPDFVCLTVPNKYVIGYGFEVNDRFRCFRHIFTLRPGEARRYPAHL
# B7: UGT3A2 S435Y (Homo sapiens, UniProt Q3SY77); chain AKILTISTVGGSHYLLMDRVSQILQDHGHNVTMLNHKRGPFMPDFKKEEKSYQVISWLAPEDHQREFKKSFDFFLEETLGGRGKFENLLNVLEYLALQCSHFLNRKDIMDSLKNENFDMVIVETFDYCPFLIAEKLGKPFVAILSTSFGSLEFGLPIPLSYVPVFRSLLTDHMDFWGRVKNFLMFFSFCRRQQHMQSTFDNTIKEHFTEGSRPVLSHLLLKAELWFINSDFAFDFARPLLPNTVYVGGLMEKPIKPVPQDLENFIAKFGDSGFVLVTLGSMVNTCQNPEIFKEMNNAFAHLPQGVIWKCQCSHWPKDVHLAANVKIVDWLPQSDLLAHPSIRLFVTHGGQNSIMEAIQHGVPMVGIPLFGDQPENMVRVEAKKFGVSIQLKKLKAETLALKMKQIMEDKRYKYAAVAASVILRSHPLSPTQRLVGWIDHVLQTGGATHLKPYVFQQPWHEQYLLDVFVFLLGLTLGTLWLCGKLLGMAVWWLRGARKVKET
# UniProt Q6F4M8, sequence (whole entry, looked up): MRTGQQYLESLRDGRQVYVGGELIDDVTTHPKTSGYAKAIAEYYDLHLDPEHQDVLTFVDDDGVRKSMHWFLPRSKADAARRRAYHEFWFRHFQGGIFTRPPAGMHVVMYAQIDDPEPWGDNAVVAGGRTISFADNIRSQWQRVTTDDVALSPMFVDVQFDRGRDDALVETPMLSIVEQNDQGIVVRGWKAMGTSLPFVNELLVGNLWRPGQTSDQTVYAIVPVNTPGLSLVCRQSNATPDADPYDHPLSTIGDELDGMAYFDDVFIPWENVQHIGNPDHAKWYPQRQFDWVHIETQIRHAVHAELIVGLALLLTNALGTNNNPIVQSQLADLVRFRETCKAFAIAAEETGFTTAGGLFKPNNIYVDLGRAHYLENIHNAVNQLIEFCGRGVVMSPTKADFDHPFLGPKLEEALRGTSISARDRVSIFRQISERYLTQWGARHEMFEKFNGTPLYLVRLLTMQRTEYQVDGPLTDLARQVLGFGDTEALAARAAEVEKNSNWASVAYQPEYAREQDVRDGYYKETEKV
# UniProt P36022, sequence (whole entry, looked up): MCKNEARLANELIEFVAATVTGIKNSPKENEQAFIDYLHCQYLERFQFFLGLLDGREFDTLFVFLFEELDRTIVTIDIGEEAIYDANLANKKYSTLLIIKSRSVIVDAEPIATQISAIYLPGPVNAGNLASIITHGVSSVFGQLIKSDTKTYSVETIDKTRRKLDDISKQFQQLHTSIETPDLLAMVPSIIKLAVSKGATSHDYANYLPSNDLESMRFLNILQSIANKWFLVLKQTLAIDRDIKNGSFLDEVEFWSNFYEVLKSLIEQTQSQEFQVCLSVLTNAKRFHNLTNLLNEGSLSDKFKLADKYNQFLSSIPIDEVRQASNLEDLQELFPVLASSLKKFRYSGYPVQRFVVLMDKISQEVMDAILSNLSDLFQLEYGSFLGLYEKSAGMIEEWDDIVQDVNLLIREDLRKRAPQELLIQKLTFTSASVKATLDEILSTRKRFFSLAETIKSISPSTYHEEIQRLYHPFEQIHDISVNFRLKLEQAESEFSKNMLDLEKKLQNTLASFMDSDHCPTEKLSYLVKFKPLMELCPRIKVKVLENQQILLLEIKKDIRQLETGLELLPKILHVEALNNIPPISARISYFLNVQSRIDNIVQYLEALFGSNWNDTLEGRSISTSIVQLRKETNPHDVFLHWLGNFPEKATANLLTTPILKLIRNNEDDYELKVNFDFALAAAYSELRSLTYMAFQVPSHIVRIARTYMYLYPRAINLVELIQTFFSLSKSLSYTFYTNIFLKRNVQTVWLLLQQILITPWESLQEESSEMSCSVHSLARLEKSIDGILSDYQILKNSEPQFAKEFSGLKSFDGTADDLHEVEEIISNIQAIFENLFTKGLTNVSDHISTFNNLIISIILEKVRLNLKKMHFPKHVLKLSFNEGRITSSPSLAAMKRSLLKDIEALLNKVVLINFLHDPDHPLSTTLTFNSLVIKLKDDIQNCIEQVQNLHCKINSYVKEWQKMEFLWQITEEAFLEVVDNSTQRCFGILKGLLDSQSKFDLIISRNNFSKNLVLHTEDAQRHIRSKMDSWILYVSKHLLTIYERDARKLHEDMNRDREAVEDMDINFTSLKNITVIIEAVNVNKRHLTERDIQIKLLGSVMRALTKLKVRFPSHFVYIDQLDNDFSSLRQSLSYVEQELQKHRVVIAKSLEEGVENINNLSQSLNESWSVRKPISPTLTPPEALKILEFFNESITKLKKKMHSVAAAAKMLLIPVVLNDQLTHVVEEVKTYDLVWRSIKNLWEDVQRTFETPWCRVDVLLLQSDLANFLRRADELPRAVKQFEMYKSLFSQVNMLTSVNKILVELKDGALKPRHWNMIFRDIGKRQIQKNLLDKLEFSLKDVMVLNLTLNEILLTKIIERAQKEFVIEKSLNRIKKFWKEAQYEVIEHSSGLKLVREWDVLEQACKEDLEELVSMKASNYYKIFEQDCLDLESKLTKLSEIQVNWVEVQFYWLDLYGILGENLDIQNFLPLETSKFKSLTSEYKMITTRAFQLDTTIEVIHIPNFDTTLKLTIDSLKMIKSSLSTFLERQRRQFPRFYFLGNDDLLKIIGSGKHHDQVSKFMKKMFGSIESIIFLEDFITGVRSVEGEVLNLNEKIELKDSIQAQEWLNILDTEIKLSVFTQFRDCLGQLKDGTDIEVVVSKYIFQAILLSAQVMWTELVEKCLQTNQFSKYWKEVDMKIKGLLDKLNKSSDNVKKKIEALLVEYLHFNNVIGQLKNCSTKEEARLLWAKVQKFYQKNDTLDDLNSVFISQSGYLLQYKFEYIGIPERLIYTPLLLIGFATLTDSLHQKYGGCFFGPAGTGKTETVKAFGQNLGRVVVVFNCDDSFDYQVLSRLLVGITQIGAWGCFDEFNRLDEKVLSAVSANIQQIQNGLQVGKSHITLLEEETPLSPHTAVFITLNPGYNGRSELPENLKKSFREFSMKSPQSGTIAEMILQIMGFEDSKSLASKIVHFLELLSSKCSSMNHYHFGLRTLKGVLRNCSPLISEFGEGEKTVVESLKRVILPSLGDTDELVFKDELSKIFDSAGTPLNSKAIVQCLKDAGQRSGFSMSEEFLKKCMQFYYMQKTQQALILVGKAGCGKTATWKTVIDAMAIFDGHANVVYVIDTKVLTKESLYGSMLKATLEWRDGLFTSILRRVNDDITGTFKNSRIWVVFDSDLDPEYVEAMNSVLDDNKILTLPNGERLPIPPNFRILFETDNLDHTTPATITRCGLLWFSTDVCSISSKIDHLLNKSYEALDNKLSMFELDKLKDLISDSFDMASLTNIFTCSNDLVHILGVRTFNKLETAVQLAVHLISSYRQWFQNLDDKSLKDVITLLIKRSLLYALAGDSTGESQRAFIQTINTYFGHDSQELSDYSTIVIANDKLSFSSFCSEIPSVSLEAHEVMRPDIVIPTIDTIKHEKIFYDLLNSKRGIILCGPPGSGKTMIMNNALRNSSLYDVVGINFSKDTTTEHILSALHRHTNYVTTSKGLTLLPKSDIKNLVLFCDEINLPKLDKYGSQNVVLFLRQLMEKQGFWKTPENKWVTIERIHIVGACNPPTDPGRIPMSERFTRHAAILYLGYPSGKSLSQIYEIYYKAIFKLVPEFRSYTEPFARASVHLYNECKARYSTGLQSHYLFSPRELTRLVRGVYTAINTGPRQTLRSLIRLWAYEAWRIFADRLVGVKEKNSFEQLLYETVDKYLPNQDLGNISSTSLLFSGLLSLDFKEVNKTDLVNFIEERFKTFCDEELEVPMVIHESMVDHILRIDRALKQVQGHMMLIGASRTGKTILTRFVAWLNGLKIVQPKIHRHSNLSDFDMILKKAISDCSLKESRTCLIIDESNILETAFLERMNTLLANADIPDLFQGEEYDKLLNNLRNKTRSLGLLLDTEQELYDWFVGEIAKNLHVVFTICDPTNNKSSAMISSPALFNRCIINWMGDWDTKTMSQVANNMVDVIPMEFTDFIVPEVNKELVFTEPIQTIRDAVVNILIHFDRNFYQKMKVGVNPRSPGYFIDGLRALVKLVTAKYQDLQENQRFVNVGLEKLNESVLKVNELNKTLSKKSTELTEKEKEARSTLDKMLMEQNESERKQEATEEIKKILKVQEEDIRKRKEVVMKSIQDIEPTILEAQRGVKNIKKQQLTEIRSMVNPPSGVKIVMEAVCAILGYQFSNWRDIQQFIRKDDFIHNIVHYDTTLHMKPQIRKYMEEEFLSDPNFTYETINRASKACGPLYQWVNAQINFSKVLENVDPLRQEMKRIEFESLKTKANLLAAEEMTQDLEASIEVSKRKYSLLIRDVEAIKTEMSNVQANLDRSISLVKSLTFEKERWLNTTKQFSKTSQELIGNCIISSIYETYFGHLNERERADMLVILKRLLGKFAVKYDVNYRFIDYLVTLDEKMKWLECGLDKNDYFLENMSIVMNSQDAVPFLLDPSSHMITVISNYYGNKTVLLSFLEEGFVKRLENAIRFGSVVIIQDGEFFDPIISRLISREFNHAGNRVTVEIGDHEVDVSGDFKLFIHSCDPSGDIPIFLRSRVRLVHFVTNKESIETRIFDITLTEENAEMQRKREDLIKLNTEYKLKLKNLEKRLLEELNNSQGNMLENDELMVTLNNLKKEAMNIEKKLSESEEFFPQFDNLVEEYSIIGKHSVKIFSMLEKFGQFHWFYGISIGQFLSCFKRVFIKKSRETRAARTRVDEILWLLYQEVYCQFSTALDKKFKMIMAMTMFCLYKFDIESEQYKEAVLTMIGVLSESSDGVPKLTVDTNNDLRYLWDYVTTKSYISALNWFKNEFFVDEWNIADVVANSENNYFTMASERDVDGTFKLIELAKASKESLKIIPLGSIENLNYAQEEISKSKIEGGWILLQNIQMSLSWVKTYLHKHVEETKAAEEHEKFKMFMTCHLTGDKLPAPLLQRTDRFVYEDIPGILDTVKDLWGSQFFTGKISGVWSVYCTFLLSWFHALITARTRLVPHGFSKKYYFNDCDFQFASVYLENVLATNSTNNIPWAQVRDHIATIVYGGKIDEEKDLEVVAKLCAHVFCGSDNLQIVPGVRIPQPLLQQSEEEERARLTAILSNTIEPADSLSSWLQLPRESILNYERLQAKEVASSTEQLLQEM
# UniProt P38999, sequence (whole entry, looked up): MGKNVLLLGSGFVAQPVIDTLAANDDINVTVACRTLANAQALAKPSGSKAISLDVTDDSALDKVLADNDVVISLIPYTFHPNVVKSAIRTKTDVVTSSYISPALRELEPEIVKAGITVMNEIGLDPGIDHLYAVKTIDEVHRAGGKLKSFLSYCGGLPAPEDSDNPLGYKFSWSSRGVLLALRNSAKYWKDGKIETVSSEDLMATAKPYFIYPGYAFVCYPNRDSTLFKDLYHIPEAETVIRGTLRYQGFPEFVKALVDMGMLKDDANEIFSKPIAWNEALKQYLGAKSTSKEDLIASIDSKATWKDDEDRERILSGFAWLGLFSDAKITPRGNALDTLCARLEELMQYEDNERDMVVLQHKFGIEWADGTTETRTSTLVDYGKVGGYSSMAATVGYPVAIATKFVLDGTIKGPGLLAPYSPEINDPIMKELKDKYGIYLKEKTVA
Substance,substrate,pH,temperature,setting,with,Km [µM]
"enzyme (Thermobifida fusca, UniProt Q47RK4)",CC(C)(COP(=O)(O)OP(=O)(O)OC[C@H]1O[C@@H](n2cnc3c(N)ncnc32)[C@H](O)[C@@H]1OP(=O)(O)O)[C@@H](O)C(=O)NCCC(=O)NCCSC(=O)CCC(=O)O,pH 7.4,37 °C,,,2100
"protein (Scutellaria baicalensis, UniProt A0A146AUJ9)",O=C1C[C@@H](c2ccccc2)Oc2cc(O)cc(O)c21,pH 7.9,28 °C,"apparent, not purified",NADPH,0.46
B1 (bga),O=[N+]([O-])c1ccccc1O[C@@H]1O[C@H](CO)[C@H](O)[C@H](O)[C@H]1O,pH 6,40 °C,"low-substrate phase, biphasic",,1500
B2 (POLK),Nc1ncnc2c1ncn2[C@H]1C[C@H](O)[C@@H](COP(=O)(O)OP(=O)(O)OP(=O)(O)O)O1,pH 7.5,23 °C,MgCl2 5 mM,8-oxoG template,1.7
"DYN1 (Saccharomyces cerevisiae, UniProt P36022)",Nc1ncnc2c1ncn2[C@@H]1O[C@H](CO[P@](=O)(O)O[P@](=O)(O)O[P@@](=O)(O)S)[C@@H](O)[C@H]1O,pH 7.2,,,,500
B3 (ltaE H126F/H83F),C[C@H](O)[C@H](N)C(=O)O,pH 7,30 °C,"potassium phosphate 20 mM, retro-aldol cleavage",PLP 500 µM,7400
"Saccharopine reductase (Saccharomyces cerevisiae, UniProt P38999)",NC(=O)c1ccc[n+]([C@@H]2O[C@H](COP(=O)(O)OP(=O)(O)OC[C@H]3O[C@@H](n4cnc5c(N)ncnc54)[C@H](OP(=O)(O)O)[C@@H]3O)[C@@H](O)[C@H]2O)c1,pH 9,25 °C,,saccharopine,150
"enzyme (Rhodococcus opacus, UniProt Q6F4M8)",O=[N+]([O-])c1ccc(O)cc1,pH 7.5,25 °C,,,56.7
B4 (PduO F112A),Nc1ncnc2c1ncn2[C@@H]1O[C@H](COP(=O)(O)OP(=O)(O)OP(=O)(O)O)[C@@H](O)[C@H]1O,pH 8,37 °C,anoxic,cob(I)alamin,34.6
"CPR (Sorghum bicolor, UniProt C5YJG8)",NC(=O)C1=CN([C@@H]2O[C@H](COP(=O)(O)OP(=O)(O)OC[C@H]3O[C@@H](n4cnc5c(N)ncnc54)[C@H](OP(=O)(O)O)[C@@H]3O)[C@@H](O)[C@H]2O)C=CC1,pH 7.4,25 °C,,,8.9
B5 (enzyme),NC(=O)c1ccc[n+]([C@@H]2O[C@H](COP(=O)(O)OP(=O)(O)OC[C@H]3O[C@@H](n4cnc5c(N)ncnc54)[C@H](OP(=O)(O)O)[C@@H]3O)[C@@H](O)[C@H]2O)c1,pH 8.8,23 °C,cofactor varied,,66
B6 (HGXPRT),O=P(O)(O)OC[C@H]1O[C@H](OP(=O)(O)OP(=O)(O)O)[C@H](O)[C@@H]1O,pH 8.3,37 °C,apparent,guanine,1.1
B7 (UGT3A2 S435Y),O=c1ccn([C@@H]2O[C@H](CO[P@@](=O)(O)O[P@@](=O)(O)O[C@H]3O[C@H](CO)[C@@H](O)[C@H](O)[C@H]3O)[C@@H](O)[C@H]2O)c(=O)[nH]1,pH 7.4,37 °C,not purified,"1-OH-pyrene 16 µM, MgCl2 10 mM, alamethicin",1280

# For quick reference, copied from above:
Substance,substrate,pH,temperature,setting,with,Km [µM]
B4 (PduO F112A),Nc1ncnc2c1ncn2[C@@H]1O[C@H](COP(=O)(O)OP(=O)(O)OP(=O)(O)O)[C@@H](O)[C@H]1O,pH 8,37 °C,anoxic,cob(I)alamin,34.6
